Results collected from several papers.
± marks the error that the study gave.
Target: Cytochrome P450 3A4 (CYP3A4, Homo sapiens, UniProt P08684)
UniProt P08684, sequence (whole entry, looked up): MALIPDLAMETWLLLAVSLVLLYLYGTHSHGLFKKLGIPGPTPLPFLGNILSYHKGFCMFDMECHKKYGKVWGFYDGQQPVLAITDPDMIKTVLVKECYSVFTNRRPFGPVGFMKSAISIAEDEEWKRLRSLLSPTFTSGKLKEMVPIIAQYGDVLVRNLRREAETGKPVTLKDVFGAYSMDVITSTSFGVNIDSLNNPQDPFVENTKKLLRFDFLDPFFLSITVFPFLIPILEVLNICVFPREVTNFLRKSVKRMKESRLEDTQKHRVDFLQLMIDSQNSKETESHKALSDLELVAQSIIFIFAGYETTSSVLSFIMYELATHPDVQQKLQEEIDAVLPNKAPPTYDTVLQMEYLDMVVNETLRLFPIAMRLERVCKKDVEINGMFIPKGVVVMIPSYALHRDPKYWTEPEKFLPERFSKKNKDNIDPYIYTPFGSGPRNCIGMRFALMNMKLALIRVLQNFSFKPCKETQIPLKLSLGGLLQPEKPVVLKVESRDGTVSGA

| assay | system | setting | endpoint | result | Structure (SMILES) |
| --- | --- | --- | --- | --- | --- |
| midazolam 1'-hydroxylation, inhibitor, recombinant enzyme | – | 15 min, pH 7.4, with: midazolam 5 µM | IC50 | 0.059 ± 0.03 µM | COc1cc2c(c(OC)c1OC)-c1c(cc3c(c1OC)OCO3)C[C@H](C)[C@](C)(O)[C@H]2OC(=O)c1ccccc1 |
| enzyme activity, time-dependent inhibitor | human liver microsomes | – | Ki | 1.85 µM | C=C(F)C(=O)N1CCN(c2nc(OC[C@@H]3CCCN3C)nc3c2CCN(c2cccc4cccc(Cl)c24)C3)C[C@@H]1CC#N |
| inhibitor | – | – | IC50 | > 30 µM | Cc1cc(OC2COC2)cc(C(=O)Nc2ccc(F)cn2)n1 |
| enzyme activity, inhibitor | human liver microsomes | NADPH pre-incubation, with: nifedipine | IC50 | > 100 µM | O=C(NCCN1CCCC1)c1cc(-c2ccc(CN3CCOCC3)cc2)nc2ccc(F)cc12 |
| inhibitor | – | – | IC50 | 10 to 50 µM | CCOc1cc(-c2nncn2C)ccc1Nc1ncc2cc(C)nc(NCC(C)(C)C)c2n1 |
| inhibitor | human liver microsomes | with: testosterone | IC50 | 0.002 µM | CC(O)C(C)n1ncn(-c2ccc(N3CCN(c4ccc(OCC5COC(Cn6cncn6)(c6ccc(Cl)cc6Cl)O5)cc4)CC3)cc2)c1=O (stereo not shown) |
| inhibitor | – | with: BFC substrate | IC50 | 10.7 µM | CCC(C)(C)C(=O)O[C@H]1C[C@@H](C)C=C2C=C[C@H](C)[C@H](CC[C@@H](O)C[C@@H](O)CC(=O)O)[C@H]21 |
| enzyme activity, time-dependent inhibitor | pooled human liver microsomes | 30 min, preincubation with NADH, with: testosterone | IC50 | 6.8 µM | OCc1ccc(-c2nn(Cc3ccccc3)c3ccccc23)o1 |
| midazolam 1'-hydroxylation, inhibitor, recombinant enzyme | – | 15 min, pH 7.4, with: midazolam 5 µM | IC50 | 0.19 ± 0.09 µM | COc1cc2c(c(OC)c1OC)-c1c(cc3c(c1OC)OCO3)[C@H](OC(=O)c1ccccc1)[C@@](C)(O)[C@@H](C)C2 |
| enzyme activity, inhibitor | – | 3A4 | IC50 | > 30 µM | Cc1cccnc1C(=O)Nc1ccc(N2C(=O)c3cccc(Cl)c3C2=O)c(Cl)c1 |
